Measured values pooled from the literature.
Lines come from different studies, so protocols differ. Numbers after ± are the reported error.

For `Cc1n[nH]c(C)c1CSC1CCCCC1`, the logP was 1.65 ± 0.3 (reversed-phase HPLC; acetonitrile-water).
For `[Cl][Ru][Cl].c1ccc(-c2ccccn2)nc1.c1ccc(-c2ccccn2)nc1.c1ccc(-c2ccccn2)nc1`, the logP was -3 (shake flask, octanol/water; chloride salt).
The logP of `COc1ccc2c3c1O[C@H]1C(=O)C=C[C@@]4(O)[C@@H](C2)N(C)CC[C@]314` is reported as 1.01 (1 h).
`Cn1c(=O)c2[nH]cnc2n(C)c1=O` gave a logP of -0.0197 ± 0.00932 (shake flask, n-octanol/water; 1000 ng/mL, 22 °C).
For `CN1CC[C@]23c4c5ccc(O)c4O[C@H]2[C@@H](O)CC[C@@]3(O)[C@H]1C5`, the logP was 1.05 (1 h).
The logP of `O=C(O)CNC(=O)C1C(=O)N(C2CCCCC2)C(=O)N(C2CCCCC2)C1=O` is reported as 5.2 (shake-flask, potentiometric; 1-octanol/water).
`CCCCCCCCCCCCOS(=O)(=O)O.Cc1cc(/C=C/C#N)cc(C)c1Nc1ccnc(Nc2ccc(C#N)cc2)n1` gave a logP of 1.68 ± 0.24 (octanol/water; room temperature).
`COc1ccc2c3c1O[C@H]1[C@@H](O)C=C[C@@]4(O)[C@@H](C2)N(C)CC[C@]314` gave a logP of 0.83 (1 h).
`O=C(NCCCNc1nc(Nc2cccc(NC(=O)N3CCCC3)c2)ncc1I)c1cccs1` gave a logP of 0.86 ± 0.3 (shake flask; octanol/water; 24 h, room temperature).
The logP of `CC(=O)CC(c1ccccc1)c1c(O)c2ccccc2oc1=O` (stereo not shown) is reported as 2.06 ± 0.128 (shake flask, n-octanol/water; 1000 ng/mL, 22 °C).

For quick reference, copied from above:
For `[Cl][Ru][Cl].c1ccc(-c2ccccn2)nc1.c1ccc(-c2ccccn2)nc1.c1ccc(-c2ccccn2)nc1`, the logP was -3 (shake flask, octanol/water; chloride salt).
